Assay results pooled from the literature.
Parts stem from different laboratories: compare values within a part only.
Sequence of UniProt P42680 (whole entry, looked up): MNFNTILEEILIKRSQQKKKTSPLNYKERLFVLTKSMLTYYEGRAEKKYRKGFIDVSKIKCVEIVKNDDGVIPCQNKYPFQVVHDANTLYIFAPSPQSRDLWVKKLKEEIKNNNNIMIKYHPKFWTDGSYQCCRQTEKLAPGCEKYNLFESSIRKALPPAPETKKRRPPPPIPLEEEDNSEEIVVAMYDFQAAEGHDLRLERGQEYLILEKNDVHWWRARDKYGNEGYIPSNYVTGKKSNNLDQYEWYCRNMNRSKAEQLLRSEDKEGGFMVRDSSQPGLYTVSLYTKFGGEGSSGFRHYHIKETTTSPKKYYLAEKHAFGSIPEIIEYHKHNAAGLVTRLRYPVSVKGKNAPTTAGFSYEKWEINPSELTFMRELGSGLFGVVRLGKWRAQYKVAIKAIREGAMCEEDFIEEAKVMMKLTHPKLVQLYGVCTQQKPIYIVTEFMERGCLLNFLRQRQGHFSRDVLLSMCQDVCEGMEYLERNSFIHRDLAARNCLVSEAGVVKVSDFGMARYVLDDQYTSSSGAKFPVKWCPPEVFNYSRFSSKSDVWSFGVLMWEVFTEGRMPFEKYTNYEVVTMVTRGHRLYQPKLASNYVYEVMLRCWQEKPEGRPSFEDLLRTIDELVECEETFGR
Sequence of UniProt Q7KZI7 (whole entry, looked up): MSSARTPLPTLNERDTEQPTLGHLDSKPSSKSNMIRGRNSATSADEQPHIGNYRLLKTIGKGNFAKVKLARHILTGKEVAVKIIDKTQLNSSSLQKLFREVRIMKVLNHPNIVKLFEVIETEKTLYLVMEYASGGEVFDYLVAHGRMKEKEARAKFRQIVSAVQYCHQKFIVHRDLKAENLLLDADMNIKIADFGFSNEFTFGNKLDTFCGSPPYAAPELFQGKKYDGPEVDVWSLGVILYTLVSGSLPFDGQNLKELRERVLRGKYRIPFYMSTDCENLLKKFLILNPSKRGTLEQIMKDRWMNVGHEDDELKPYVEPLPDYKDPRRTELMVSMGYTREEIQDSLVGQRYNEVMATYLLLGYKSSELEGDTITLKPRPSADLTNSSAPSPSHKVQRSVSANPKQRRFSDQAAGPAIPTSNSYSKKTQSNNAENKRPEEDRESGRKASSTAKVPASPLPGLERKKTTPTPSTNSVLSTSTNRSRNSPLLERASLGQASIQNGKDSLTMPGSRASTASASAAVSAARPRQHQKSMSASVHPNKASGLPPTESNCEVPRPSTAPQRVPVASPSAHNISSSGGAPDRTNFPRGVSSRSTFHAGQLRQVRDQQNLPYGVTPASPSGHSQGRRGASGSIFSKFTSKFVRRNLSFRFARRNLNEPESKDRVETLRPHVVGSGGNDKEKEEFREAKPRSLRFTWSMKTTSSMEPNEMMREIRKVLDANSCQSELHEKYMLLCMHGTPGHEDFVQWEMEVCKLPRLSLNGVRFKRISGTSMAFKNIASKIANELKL

Sample 1
Target: PABPC1L2, full length, GST fusion (mouse, UniProt A0ABA7IW68)
Technique: RNAcompete
Form: RNA
Medium: in vitro
Tested at: 20 nM
Notes: 7-mer, probes averaged, single round
Relative to: mean of 7-mers
Direction: higher = stronger binding
Target sequence (chain): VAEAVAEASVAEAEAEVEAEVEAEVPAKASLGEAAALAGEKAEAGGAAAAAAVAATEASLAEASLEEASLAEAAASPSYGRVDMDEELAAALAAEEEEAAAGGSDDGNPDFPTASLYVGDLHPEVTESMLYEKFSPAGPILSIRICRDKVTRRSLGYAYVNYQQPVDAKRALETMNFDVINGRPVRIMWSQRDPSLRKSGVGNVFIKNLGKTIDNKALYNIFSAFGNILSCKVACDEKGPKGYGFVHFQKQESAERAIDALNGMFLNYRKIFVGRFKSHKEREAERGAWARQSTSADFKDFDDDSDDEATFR
Strand | 7-mer Z-score
AAACUUA | 1.13
ACUCUGU | -0.215
AACACUA | 0.457
GGACUCC | -0.229
AUCUCUA | -0.322
AACAAAC | 1.69
CGCGCGC | -0.463
CCAUAGC | -0.324

Sample 2
Target: Sal-like protein 4, full length isoform A (SALL4, Homo sapiens, UniProt Q9UJQ4, residues 1-1053)
Sequence of UniProt Q9UJQ4 (whole entry, looked up): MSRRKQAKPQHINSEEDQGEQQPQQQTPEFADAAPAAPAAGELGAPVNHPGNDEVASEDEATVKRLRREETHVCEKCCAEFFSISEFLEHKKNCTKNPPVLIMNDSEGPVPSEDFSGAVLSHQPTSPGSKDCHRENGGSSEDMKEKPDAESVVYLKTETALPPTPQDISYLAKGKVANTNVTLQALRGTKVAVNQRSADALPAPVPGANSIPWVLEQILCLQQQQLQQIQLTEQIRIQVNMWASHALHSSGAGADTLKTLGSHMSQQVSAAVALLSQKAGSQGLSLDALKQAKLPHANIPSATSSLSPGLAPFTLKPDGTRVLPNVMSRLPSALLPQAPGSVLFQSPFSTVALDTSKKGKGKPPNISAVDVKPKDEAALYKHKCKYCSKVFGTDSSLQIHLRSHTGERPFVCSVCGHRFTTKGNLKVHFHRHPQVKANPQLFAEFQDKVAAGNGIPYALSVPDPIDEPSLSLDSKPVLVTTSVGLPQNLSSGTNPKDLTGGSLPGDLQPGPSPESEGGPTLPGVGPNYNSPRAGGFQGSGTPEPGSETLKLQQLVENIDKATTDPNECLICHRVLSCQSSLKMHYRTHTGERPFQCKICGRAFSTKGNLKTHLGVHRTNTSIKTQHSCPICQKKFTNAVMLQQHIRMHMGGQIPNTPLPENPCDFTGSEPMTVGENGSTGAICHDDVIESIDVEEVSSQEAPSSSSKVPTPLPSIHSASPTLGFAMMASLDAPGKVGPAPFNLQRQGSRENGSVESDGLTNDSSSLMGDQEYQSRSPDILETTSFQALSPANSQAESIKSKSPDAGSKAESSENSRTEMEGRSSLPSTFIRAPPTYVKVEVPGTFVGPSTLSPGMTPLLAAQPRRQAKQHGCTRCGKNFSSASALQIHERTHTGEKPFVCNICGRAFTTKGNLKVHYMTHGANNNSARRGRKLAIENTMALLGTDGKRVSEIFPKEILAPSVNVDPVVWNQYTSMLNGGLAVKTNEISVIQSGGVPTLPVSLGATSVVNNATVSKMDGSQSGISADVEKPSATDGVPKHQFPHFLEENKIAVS
Technique: universal PBM
Form: double-stranded DNA, one strand shown
Medium: in vitro
Tested at: 600 nM
Notes: 8-mer, flanks averaged, mean of replicates
Direction: higher = stronger binding
Strand | E-score
AGTCCGTG | -0.273
CAACGGAC | -0.209
AATTGCCG | 0.00356
ACCTTTAC | 0.0173
AGGTAGCC | -0.317
GCTGTGCC | -0.229
ATCTGCAG | -0.00958
GCCGCAAC | -0.0715

Single results of other studies
Compound | target | assay | setting | how to read | measurement | value
COc1cc2ncnc(Nc3ccc(O)c(Br)c3)c2cc1OC | MARK2 (Homo sapiens, UniProt Q7KZI7) | enzyme activity, inhibitor | 0.5 µM | relative to: control | remaining activity | 94.5%
O=C(NC[C@@H]1[C@H]2CN(C(=O)OCc3cc(C(F)(F)F)cc(C(F)(F)F)c3)C[C@@H]12)c1ccc2[nH]nnc2c1 | TEC (Homo sapiens, UniProt P42680) | cell-free assay, competition with immobilised ligand | 1 µM | – | remaining binding | 100%

A few entries again (single results of other studies):
Compound | target | assay | setting | how to read | measurement | value
COc1cc2ncnc(Nc3ccc(O)c(Br)c3)c2cc1OC | MARK2 (Homo sapiens, UniProt Q7KZI7) | enzyme activity, inhibitor | 0.5 µM | relative to: control | remaining activity | 94.5%
O=C(NC[C@@H]1[C@H]2CN(C(=O)OCc3cc(C(F)(F)F)cc(C(F)(F)F)c3)C[C@@H]12)c1ccc2[nH]nnc2c1 | TEC (Homo sapiens, UniProt P42680) | cell-free assay, competition with immobilised ligand | 1 µM | – | remaining binding | 100%
